Results pooled from the literature.
Parts stem from different laboratories: compare values within a part only. Positions count from the first letter of the parent shown.

Study 1
Target: CREB5, bZIP domain (human)
Method: DHFR protein complementation
Sample: yeast
Setting: single substitutions, most at no-binding floor
Reference: wild-type JUN-FOS pair
Direction: higher = stronger binding
Measurement: binding fitness
Parent: JUN, bZIP domain (human); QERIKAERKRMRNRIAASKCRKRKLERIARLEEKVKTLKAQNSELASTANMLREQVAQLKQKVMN; partner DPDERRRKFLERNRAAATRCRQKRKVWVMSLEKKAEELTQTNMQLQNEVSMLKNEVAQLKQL
S47K: -0.0867 natural log
S47C: -0.29 natural log
S43N: -0.228 natural log
A40N: -0.324 natural log
Q58A: -0.186 natural log
A49T: -0.97 natural log
L31A: -0.692 natural log
E54C: -0.652 natural log
S43W: -0.516 natural log
L59P: -1.31 natural log

Study 2
Target: Histone acetyltransferase KAT6A, winged helix 2, GST fusion (KAT6A, Homo sapiens, UniProt Q92794, residues 85-181)
Method: protein binding microarray
Molecule type: double-stranded DNA, one strand shown
Sample: in vitro
Tested at: not given
Setting: 8-mer, flanks averaged, mean of 2 arrays, mostly near background
Reference: not given
Direction: higher = stronger binding
Measurement: E-score
Construct (chain): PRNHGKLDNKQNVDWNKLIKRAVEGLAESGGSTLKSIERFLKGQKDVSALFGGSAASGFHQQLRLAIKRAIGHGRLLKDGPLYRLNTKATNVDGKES
ATCCAGCC: -0.00528
ATCATAGA: 0.153
CCACATCC: -0.113
ACTGTCTA: -0.128
TGGCCTAA: -0.123
CGCCGAAC: 0.103
AACTCCCT: 0.0208
CATGAGGC: 0.129
GCCCAGCC: 0.222
GATTGTAA: 0.00439
AGCTCTAA: -0.0724

Study 3
Target: ABI1, truncated, D143A, DHFR fusion (Arabidopsis thaliana)
Method: DHFR PCA, deep sequencing
Sample: yeast
Setting: methotrexate growth selection, single substitutions
Added: (+)-ABA 2500 µM
Reference: wild-type fitted maximum
Direction: higher = stronger binding
Measurement: relative binding score
Parent: PYL1, truncated, DHFR fusion (Arabidopsis thaliana); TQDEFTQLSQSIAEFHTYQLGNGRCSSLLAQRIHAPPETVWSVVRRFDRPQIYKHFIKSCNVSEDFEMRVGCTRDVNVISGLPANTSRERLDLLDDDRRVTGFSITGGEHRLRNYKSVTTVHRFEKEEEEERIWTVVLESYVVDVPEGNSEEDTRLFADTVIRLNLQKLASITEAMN; partner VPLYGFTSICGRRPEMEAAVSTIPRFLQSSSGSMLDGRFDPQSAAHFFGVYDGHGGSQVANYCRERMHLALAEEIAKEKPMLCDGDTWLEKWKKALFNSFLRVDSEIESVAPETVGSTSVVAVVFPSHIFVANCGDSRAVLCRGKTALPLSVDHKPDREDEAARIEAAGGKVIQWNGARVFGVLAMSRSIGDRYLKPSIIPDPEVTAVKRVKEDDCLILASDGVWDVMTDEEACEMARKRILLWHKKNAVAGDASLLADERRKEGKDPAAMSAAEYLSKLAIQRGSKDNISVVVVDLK
V43Q: 89%
V40H: -0.967%
N85Q: 91.2%
S9A: 109%
A30I: 95.4%
L166W: 9.16%
V40D: 2.5%
T86V: 89.1%

Single results of other studies
PhoQ, residues 284 288 289 292 302 303 ALASRC — fold induction (PhoP, residues 12 14 15 18 19 LHHSG (Escherichia coli, UniProt P23836); Sort-seq, measured: YFP reporter; E. coli; PhoQ-PhoP variant library, added: 10 µM Mg2+; reference: high Mg2+ state, higher = stronger signaling): 8.85

For quick reference, copied from above (study 1):
S43W: -0.516 natural log
E54C: -0.652 natural log
Q58A: -0.186 natural log
